Measurements collected from several papers.
Values joined by “and” are separate records of one study, mostly repeats; a detail may differ. Numbers after ± are the reported error.
HLA class I histocompatibility antigen, A alpha chain allele A*24:02: HLA class I histocompatibility antigen, A alpha chain, allele A*24:02 (Homo sapiens, UniProt P04439)

SMILES | tested on | assay | system | conditions | how to read | quantity | result
O=S(=O)(Nc1ccccc1)c1ccc(NC(=S)Nc2ccccc2)cc1 |  | item: LY% | female mouse, blood | oral, 20 mg/kg daily, 14 days |  | blood cell fraction | 59.9%
Cc1cccc(Cn2nc(C3CC3)c3c(NC(=O)c4cnc5cc(OCCN6CCN(C)CC6)ccn45)cccc32)n1 |  | item: Nausea | human advanced solid tumours | oral, dose not given, all-causality,, all doses |  | adverse events incidence | 26.3%
C[C@]1(CO)Cc2ncn(-c3ccc(C#N)c(Cl)c3)c2C(=O)O1 |  |  | human, plasma | 80 mg single dose, geometric mean |  | AUC(0-inf) | 17.3 µM·h
O=C1Nc2cc3[nH]nc(-c4ccncc4)c3cc2CN1Cc1ccccc1 |  | CTCAE v4.03 | human, relapsed or refractory advanced solid tumours | intravenous, 6.4 mg/kg |  | patients with vitreous floaters | 0%
C=CC(=O)Nc1cc(Nc2nccc(Nc3cc(Cl)c(F)cc3C(C)(C)O)n2)c(OC)cc1N1CC[C@@H](N(C)C)C1 |  |  | human patients | oral, 300 mg, treatment-emergent adverse events |  | patients with anaemia | 31.4%
COc1cc2c(Oc3ccc4[nH]c(C)cc4c3F)ccnc2cc1OCC1(N)CC1 |  |  | paediatric recurrent refractory sarcoma | 10 mg |  | grade 3 Appendicitis | 0%
CSCC[C@H](NC(=O)[C@@H](N)Cc1ccc(O)cc1)C(=O)N[C@@H](CC(=O)O)C(=O)N1CCC[C@H]1C(=O)N[C@H](C(=O)N1CCC[C@H]1C(=O)N[C@@H](CC(C)C)C(=O)N[C@@H](CCC(N)=O)C(=O)N[C@@H](Cc1ccccc1)C(=O)O)C(C)C | HLA class I histocompatibility antigen, A alpha chain allele A*24:02 | binding |  |  |  | IC50 | 117 nM
Cn1nc(NS(C)(=O)=O)c2c(Cl)ccc(-n3c([C@H](Cc4cc(F)cc(F)c4)NC(=O)Cn4nc(C(F)F)c5c4C(F)(F)[C@@H]4C[C@H]54)nc4nc(OCCC(F)(F)F)ccc4c3=O)c21 |  | item: total bile acids increased | human | 125 mg, powder in bottle |  | drug-related adverse events | 0%
Cc1c(COC(=O)[C@@H]2[C@H](/C=C(\Cl)C(F)(F)F)C2(C)C)cccc1-c1ccccc1 (racemic) |  | item: CYP2C9 | human, age 6 months, recombinant human CYP2C9 | 0.1 µM |  | enzyme contribution to clearance | 24.8%
N[C@@H]1c2ccccc2OC12CCN(c1cnc3c(N4CCCc5ncccc54)n[nH]c3n1)CC2 |  |  | patients advanced metastatic solid tumours | oral, 60 mg once daily, RP2D expansion phase |  | incidence of any serious TEAE | 30%
C[C@@H]1NC(=O)[C@H](CCCCNC(=O)CO/N=C/C(=O)NCCCC[C@@H]2NC(=O)[C@@H](Cc3ccccc3)NC(=O)[C@H](CC(=O)O)NC(=O)CNC(=O)[C@H](CCCNC(=N)N)NC2=O)NC(=O)CNC(=O)[C@@H]2CCCN2C(=O)[C@H](CCCCNC(=O)CO/N=C/C(=O)NCCCC[C@@H]2NC(=O)[C@@H](Cc3ccccc3)NC(=O)[C@H](CC(=O)O)NC(=O)CNC(=O)[C@H](CCCNC(=N)N)NC2=O)NC(=O)[C@H](CCCCNC(=O)CN2CCCNCCNCCCNCC2)NC(=O)[C@H](CCCCNC(=O)CO/N=C/C(=O)NCCCC[C@@H]2NC(=O)[C@@H](Cc3ccccc3)NC(=O)[C@H](CC(=O)O)NC(=O)CNC(=O)[C@H](CCCNC(=N)N)NC2=O)NC(=O)CNC(=O)[C@@H]2CCCN2C(=O)[C@H](CCCCNC(=O)CO/N=C/C(=O)NCCCC[C@@H]2NC(=O)[C@@H](Cc3ccccc3)NC(=O)[C@H](CC(=O)O)NC(=O)CNC(=O)[C@H](CCCNC(=N)N)NC2=O)NC1=O [copper-64 labelled] |  |  | normal mice, intestine | intravenous, 0.74 MBq, 3 h post-injection |  | tissue uptake | 2.53 ± 0.54 %ID/g
CC(C)C[C@H](NC(=O)[C@H](CCCCN)NC(=O)OCC1c2ccccc2-c2ccccc21)C(=O)N[C@H](C(=O)N[C@@H](Cc1ccccc1)C(=O)N[C@@H](Cc1ccccc1)C(=O)N[C@@H](CCCCN)C(=O)NCC(=O)N[C@@H](Cc1ccccc1)C(=O)N[C@@H](C)C(=O)N[C@@H](Cc1c[nH]c2ccccc12)C(=O)N[C@@H](CC(N)=O)C(=O)N[C@H](C(=O)N[C@H]1CSSC[C@@H](C(=O)N[C@@H](Cc2c[nH]cn2)C(=O)N[C@@H](CCCNC(=N)N)C(=O)N[C@@H](CCCNC(=N)N)C(=O)N[C@@H](C)C(=O)N[C@@H](CC(N)=O)C(N)=O)NC(=O)[C@H](C(C)C)NC(=O)[C@H](CCCNC(=N)N)NC(=O)[C@H](C(C)C)NC(=O)CNC(=O)[C@H](CC(N)=O)NC(=O)[C@H](CCCNC(=N)N)NC(=O)[C@H](Cc2ccc(O)cc2)NC(=O)[C@H](C(C)C)NC1=O)C(C)C)C(C)C |  |  | ICR mouse | ip, 5 mg/kg | direction not given | lachrymation score | 0
CC(C)(O)c1cc(Nc2cc(Oc3cn(C4CC4)nc3C3CCOCC3)ccn2)ccn1 |  | Nausea | advanced cancer patients, grade 4 glioma expansion | oral, 50 mg twice daily, all causality any grade |  | treatment-emergent adverse events | 8%
Clc1ccc(-c2cc(Cl)c(Cl)cc2Cl)cc1Cl |  |  | whole cow milk | 200 nM nominal |  | dose fraction in skim milk | 5.5%
CC[C@H](C)[C@@H]1NC(=O)[C@@H]2CCCN2C(=O)[C@H](CC(C)C)NC(=O)[C@H](CC(C)C)NC(=O)CNC(=O)[C@@H](NC(=O)[C@@H](NC(=O)[C@H](CC(=O)O)NC(=O)CNC(=O)[C@@H](NC(=O)[C@H](C)NC(=O)CNC(=O)[C@H](CCCCN)NC(=O)[C@H](CC(C)C)NC(=O)[C@H](CC(C)C)NC(=O)[C@H](CCCCN)NC(=O)CNC(=O)[C@@H](NC(=O)[C@@H](N)CC(C)C)C(C)C)C(C)C)C(C)C)CSSC[C@@H](C(=O)O)NC1=O |  |  | female C57BL/6 mouse, plasma | intravenous, 10 mg/kg |  | plasma half-life | 2.79 ± 0.11 h
CCCSc1ccc2nc(NC(=O)OC)[nH]c2c1 |  |  | mouse, blood | oral, 50 mg/kg, tolerability, mean |  | platelet distribution width | 15.7%
CNC(=O)c1c(C)oc2cc(Oc3ccnc4cc(OCCN5CCOCC5)ccc34)ccc12 |  |  | patients with advanced solid tumours |  |  | maximum tolerated dose | 8 mg
COc1cccc(Oc2ccccc2NC(=O)CNC(=O)c2cccc3ccccc23)c1 |  |  | esterase-deficient SCID mice, male | oral, 15 mg/kg/day, 14 days, toxicity study |  | serum globulin | 2.1 g/dL and 2.3 g/dL
CC[C@H](C)[C@H](NC(=O)[C@@H](NC(=O)[C@H](CCCCN)NC(=O)[C@H](Cc1c[nH]cn1)NC(=O)[C@H](Cc1ccc(O)cc1)NC(=O)[C@H](CCSC)NC(=O)[C@@H](N)CCCNC(=N)N)C(C)C)C(=O)N[C@H](C(=O)N[C@@H](Cc1ccccc1)C(=O)O)[C@@H](C)O | HLA class I histocompatibility antigen, A alpha chain allele A*24:02 | binding |  |  |  | IC50 | 502 nM
COc1ccc(C[C@@H]2NC(=O)[C@H]([C@@H](C)O)NC(=O)[C@@H]3[C@@H]4CCN3C(=O)[C@@H]3Cc5cn(c6ccc(F)cc56)CCCCCCN(Cc5ccc(cc5)CCNC(=O)[C@]5(C)CCCN5C2=O)C(=O)CCC(=O)N[C@@H](C)C(=O)N[C@H](CNC(=O)CCCCC[N+](C)(C)C)C(=O)N[C@@H](Cc2cccc(c2)CNC(=O)CO4)C(=O)N3)cc1 |  | item: Restlessness | humans | concentration not given, Study-003 |  | participants with adverse event | 0%
O=c1ccc2ncc(=O)n3c2n1C[C@H]3CN1CCC(NCc2cc3c(cn2)OCCC3)CC1 |  |  | healthy human volunteers, urine | oral, 1500 mg, arithmetic mean, alone |  | AUC(0-24) | 3870 µg·h/mL
CCc1ccc(CC/C=C/c2ccc3c(c2)C(=O)CC3)cc1 |  |  | Sprague-Dawley rat, female, blood | oral, 120 mg/kg/day, 14 days |  | prothrombin time | 12.7 s
CC[C@H](C)[C@H](NC(=O)[C@H](Cc1ccccc1)NC(=O)[C@H](CCC(=O)O)NC(=O)[C@H](CCCNC(=N)N)NC(=O)[C@H](C)NC(=O)[C@H](C)NC(=O)[C@H](CCC(N)=O)NC(=O)[C@H](CCC(=O)O)NC(=O)[C@H](CCC(=O)O)NC(=O)[C@H](CC(C)C)NC(=O)[C@H](Cc1ccc(O)cc1)NC(=O)[C@H](CO)NC(=O)[C@H](CO)NC(=O)[C@@H](NC(=O)[C@H](CC(=O)O)NC(=O)[C@H](CO)NC(=O)[C@@H](NC(=O)[C@H](Cc1ccccc1)NC(=O)[C@@H](NC(=O)CNC(=O)[C@H](CCC(=O)O)NC(=O)[C@H](C)NC(=O)CCc1cnc[nH]1)[C@@H](C)O)[C@@H](C)O)C(C)C)C(=O)N[C@@H](C)C(=O)N[C@@H](Cc1c[nH]c2ccccc12)C(=O)N[C@@H](CC(C)C)C(=O)N[C@H](C(=O)N[C@@H](CCCNC(=N)N)C(=O)NCC(=O)N[C@@H](CCCNC(=N)N)C(=O)N[C@@H](CCCCNC(=O)COCCOCCNC(=O)COCCOCCNC(=O)CC[C@H](NC(=O)CCCCCCCCCCCCCCCCC(=O)O)C(=O)O)C(=O)NCC(=O)NCC(=O)N[C@@H](CO)C(=O)N[C@@H](CCCCNC(=O)[C@H](CCCCNc1c(NCCCCCN(O)C(=O)CCC(=O)NCCCCCN(O)C(=O)CCC(=O)NCCCCCN(O)C(C)=O)c(=O)c1=O)Nc1c(NCCCCCN(O)C(=O)CCC(=O)NCCCCCN(O)C(=O)CCC(=O)NCCCCCN(O)C(C)=O)c(=O)c1=O)C(=O)O)C(C)C [zirconium-89 labelled] |  | ex vivo gamma counting | Sprague-Dawley rat, male, pancreas | intravenous, 1 nmol, 24 h |  | tissue uptake | 0.21 %ID/g and 0.231 %ID/g and 0.186 %ID/g and 0.211 %ID/g and 0.256 %ID/g
CO[C@H]1C[C@@H]2CC[C@@H](C)[C@@](O)(O2)C(=O)C(=O)N2CCCC[C@H]2C(=O)O[C@H]([C@H](C)C[C@@H]2CC[C@@H](OC(=O)NCCOCCOCCOCCOCCOCCOCCOCCOCCC(=O)N3CCc4cc(Cn5nc(-c6ccc7oc(N)nc7c6)c6c(N)ncnc65)ccc4C3)[C@H](OC)C2)C[C@@H](O)[C@H](C)/C=C(\C)[C@@H](O)[C@@H](OC)C(=O)[C@H](C)C[C@H](C)/C=C/C=C/C=C/1C |  | phase 1 dose escalation, item: diarrhoea | advanced solid tumour patients | intravenous, 16 mg weekly, any grade |  | TRAE incidence | 0%
CCCSc1ccc2nc(NC(=O)OC)[nH]c2c1 |  | thermogravimetric analysis |  | concentration not given, nitrogen, 10 °C/min |  | 5% weight loss temperature | 201 °C
NC(=O)[C@H]1CCN(c2ncnc(N)c2F)C[C@@H]1N1CCC[C@@H](Nc2cc(Cl)cc(C(F)(F)F)c2)C1=O |  |  | B-cell malignancy patients | oral, 246 mg twice daily, dose |  | grade ≥3 hypocalcaemia | 0%
O=c1nc(NO)ccn1[C@@H]1O[C@H](CO)[C@@H](O)[C@H]1O |  |  | rat maternal blood dialysate | 1000 ng/mL, high concentration, three cycles, together with: molnupiravir 250 ng/mL |  | freeze-thaw stability | 96.8 ± 3.77%
O=C(O)CCCOc1ccc(F)cc1-c1cc(-c2ccccc2C(F)(F)F)n(-c2ccccc2)n1 |  | item: Ca | Crl:CD(SD) rats, male, blood | iv, 25 µg/kg, 14 days |  | blood chemistry | 9.7 ± 0.3 mg/dL

For quick reference, copied from above:
SMILES | tested on | assay | system | conditions | how to read | quantity | result
O=c1nc(NO)ccn1[C@@H]1O[C@H](CO)[C@@H](O)[C@H]1O |  |  | rat maternal blood dialysate | 1000 ng/mL, high concentration, three cycles, together with: molnupiravir 250 ng/mL |  | freeze-thaw stability | 96.8 ± 3.77%
O=C(O)CCCOc1ccc(F)cc1-c1cc(-c2ccccc2C(F)(F)F)n(-c2ccccc2)n1 |  | item: Ca | Crl:CD(SD) rats, male, blood | iv, 25 µg/kg, 14 days |  | blood chemistry | 9.7 ± 0.3 mg/dL
